Measurements pooled from the literature.
Parts stem from different laboratories: compare values within a part only. Changes are numbered by the printed parent chain.

Study 1
Target: RNA binding protein fox-1 homolog 2, RRM domain, GST-SBP tag (RBFOX2, Homo sapiens, UniProt O43251-10, residues 100-194)
Method: RNA Bind-n-Seq
Form: RNA
Matrix: in vitro
Tested at: 365 nM
Notes: natural RNA segment, single round, ends assumed
Relative to: no-protein control
Reading: higher = stronger binding
Construct (chain): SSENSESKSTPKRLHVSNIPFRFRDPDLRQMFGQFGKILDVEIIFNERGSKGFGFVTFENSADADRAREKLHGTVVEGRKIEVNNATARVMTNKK
Under “RBNS enrichment (R)”, `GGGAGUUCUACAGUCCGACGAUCUGAAAUAAUAGAGCGAGCACCCAUUCCAAAGCUUUAUUACCAGUGACGUUGUUGCAUGUUUGAAAUUCGGUCUGUUUAAAGUGGCAGUCAUGUAUGUGGUUUGGAGGCAGUGGAAUUCUCGGGUGCCAA` is recorded as 23.3.
`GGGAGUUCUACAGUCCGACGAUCGAGAGUGUCUGGGGGAGCCUUUUGGUGUUUGCCACCCCACCCCCCAGGAGAUGGUUAAUAAGAGUUGUUACUUCGAGGUGCCUACCUCCACCUUCAAAGUAACUCUUAGAUGGAAUUCUCGGGUGCCAA`: “RBNS enrichment (R)” 0.442.
Under “RBNS enrichment (R)”, `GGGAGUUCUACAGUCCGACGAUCUCUUCUGAGGGCCGGGCACGGUCACACGGCCACCCGCCCCGCGCACCCCACGCCCUGUUCACGCUCACCCAGUCACCUCCCCACAUCGCACACUGGGGCCCCGGGUUCAGUGGAAUUCUCGGGUGCCAA` is recorded as 1.01.
`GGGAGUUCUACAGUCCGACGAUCUCCUAAAAGGACAGAUCACUUCAGAAGAGUGAAUAACUGAUUUGCACAGCUGAAUCAGGAGACACAAAGAUGAGACUGUGUUUGGUUACAUUUUCCAAAGUUUCAUUGCAUGGAAUUCUCGGGUGCCAA` — result for “RBNS enrichment (R)”: 0.933.
`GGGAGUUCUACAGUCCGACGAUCGAGCGUUGUCAAUACCACUUAUAAAGCCAAGAAUUGCCAUGAUUUAAGACUAAGAUCUGUCUUUUUGGUGACUAACACUUCAGUUCUUUCAACUCCUAUUAAUACCCAUAUGGAAUUCUCGGGUGCCAA`: “RBNS enrichment (R)” 0.567.
`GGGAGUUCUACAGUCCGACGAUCAGCUAAGCUUGCUUUGCAGGGCAGACACCUGGGACAGCCUUCCUCCCUCAUGUUUGCUGGGACACUGCUGAGCACCCCUUGCUUACUUAGCUCAGUGAUGUUCCAGCUCCUGGAAUUCUCGGGUGCCAA` — result for “RBNS enrichment (R)”: 0.772.
`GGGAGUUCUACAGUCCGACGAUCGCCCCGGGUAUGAACCGCAGAACUCUGGAGAUGGCGUUCAGAAUUCUGAGUUCAAAACCCAUAGCCCUGAGUUUGAAACUCAAAGUUCCAAAUUCCAGGAAGGUGCAGAGUGGAAUUCUCGGGUGCCAA` — result for “RBNS enrichment (R)”: 0.347.
Under “RBNS enrichment (R)”, `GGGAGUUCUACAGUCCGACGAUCGUUUUCCAGGGAGGGAAUGAUAUAAUUUUCAUGACAAUGUCAUGUGCUGAUAGAAUUUCUCCAUUGAUGAACCUCUAGUAUGUGUGUAUACUUUAUUUACCCAUGUGUAUUGGAAUUCUCGGGUGCCAA` is recorded as 0.634.

Study 2
Target: Max-binding protein MNT, bHLH-zipper, MAX partner unstated (MNT, Homo sapiens, UniProt Q99583, residues 220-300)
Method: protein-binding microarray
Form: double-stranded DNA, one strand shown
Matrix: in vitro
Tested at: not given
Notes: k-mer, scored over probes, only values ≥0.25
Reading: higher = stronger binding
Residues (chain): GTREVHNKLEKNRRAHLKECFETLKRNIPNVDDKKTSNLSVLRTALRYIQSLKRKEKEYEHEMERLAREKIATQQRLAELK
For `CTCGCACA`, the E-score was 0.305.
The E-score of `AACTCATG` is reported as 0.3.
`GCACATGA` gave an E-score of 0.451.
`AGGCGTGG` has an E-score of 0.329.
`CACGCCCA` has an E-score of 0.354.
For `CTCGTGAA`, the E-score was 0.307.
With `AGCCCCGC` the E-score was 0.259.
For `CATGCATC`, the E-score was 0.29.

Mixed results
P1: PafA, mature enzyme, eGFP fusion (Elizabethkingia meningoseptica, UniProt Q9KJX5); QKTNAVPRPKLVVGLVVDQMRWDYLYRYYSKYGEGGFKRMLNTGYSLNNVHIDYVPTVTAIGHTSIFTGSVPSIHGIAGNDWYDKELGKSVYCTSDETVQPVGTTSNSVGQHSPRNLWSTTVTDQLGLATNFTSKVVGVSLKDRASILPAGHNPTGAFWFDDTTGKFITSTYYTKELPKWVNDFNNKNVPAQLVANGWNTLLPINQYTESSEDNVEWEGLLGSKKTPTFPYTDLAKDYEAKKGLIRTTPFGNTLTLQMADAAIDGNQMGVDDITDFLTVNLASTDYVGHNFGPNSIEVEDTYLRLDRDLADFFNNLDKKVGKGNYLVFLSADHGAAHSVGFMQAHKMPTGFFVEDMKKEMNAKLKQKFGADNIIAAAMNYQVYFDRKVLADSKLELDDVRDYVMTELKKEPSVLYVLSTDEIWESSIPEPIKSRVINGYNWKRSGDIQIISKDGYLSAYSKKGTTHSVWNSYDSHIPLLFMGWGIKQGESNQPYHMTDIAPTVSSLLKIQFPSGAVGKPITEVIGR
`FAM98A (Homo sapiens, UniProt Q8NCA5)` — result for cross-linked residues: “K277 to T192” (RTRAF (Homo sapiens, UniProt Q9Y224); cross-linking MS; cell fractions; with: DSSO).
Under “oxyanion analog dissociation constant”, `P1 Q381G` is recorded as 732 nM (vanadate, free oxyanion; microfluidic competitive inhibition; in vitro, cell-free expressed; not given, derived from inhibition constants, unchanged parent 676 nM; lower = stronger binding).
For `SF3A2 (Homo sapiens, UniProt Q15428)`, cross-linked residues read “K42 to K306” (SF1 (Homo sapiens, UniProt Q15637); cross-linking MS; cell fractions; with: DSSO).
For `RBM25 (Homo sapiens, UniProt P49756)`, cross-linked residues read “K462 to K179” (SRSF1 (Homo sapiens, UniProt Q07955); cross-linking MS; cell fractions; with: DSSO).
For `DDX5 (Homo sapiens, UniProt P17844)`, interaction screen read “cross-linked” (RBMX (Homo sapiens, UniProt P38159); cross-linking MS; hits only).

For quick reference, copied from above (study 2):
`CACGCCCA` has an E-score of 0.354.
For `CTCGTGAA`, the E-score was 0.307.
